# Results from different studies.
# Each numbered part is a random draw from the data of one study; scales do not carry over between parts. Positions count from the first letter of the parent shown.

# Block 1 — method: RNA Bind-n-Seq; form: RNA; matrix: in vitro; tested at: not given; reference: input RNA pool; direction: higher = stronger binding
# Target: RING finger protein unkempt homolog, zinc fingers 1-6, GST-SBP tag (UNK, Homo sapiens, UniProt Q9C0B0, residues 30-357)
# Notes: RNA with constant flanks, human and mouse sites, ends assumed
# All sequences stand within: GGGAGUUCUACAGUCCGACGAUC … CAACAGAGGAUUGAGCAUCA
# Residues (chain): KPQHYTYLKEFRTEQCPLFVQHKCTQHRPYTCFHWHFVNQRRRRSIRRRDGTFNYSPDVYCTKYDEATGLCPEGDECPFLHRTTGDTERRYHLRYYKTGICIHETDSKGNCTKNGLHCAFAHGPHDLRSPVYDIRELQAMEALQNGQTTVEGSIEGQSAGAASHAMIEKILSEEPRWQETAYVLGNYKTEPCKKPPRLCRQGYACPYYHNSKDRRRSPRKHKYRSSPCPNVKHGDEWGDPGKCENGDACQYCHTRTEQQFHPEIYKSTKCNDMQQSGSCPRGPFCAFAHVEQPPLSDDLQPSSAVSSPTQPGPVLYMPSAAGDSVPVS
Oligonucleotide,bound/input enrichment
ACUUAGCAAGGGCUCUGAAAUGACAAAGAGAACGAGCACCACAAAUGAGAACAGGAUCAUUUUAGUAAAUACAGCUUUAUCCCAAAAGCUUUAACUGUAUUGGGAAAACUUAAAAAAUAG,28.4 ratio
AUAUUUGUAAAUAAAGGUAGAAACAUUGGGAUCCACCCCUGCAGAACUUACUGUACAGUUUAGUUGAAGUGUAGAAAGGAAUUGUCAGCUCAUCGUGACUGAUACAUAGUGAAGAAAGUA,9.39 ratio
AAAAACAGGGGUGAGAUAAAGGUCAAUAUUCAAUUUAUGAGGAACAACAUGACAGCAAGCAUGUUUGACUUGUCAAUGAAGGACAAGACGAGAUCACCUUUUGCAAAAUUAAAAGAUAAG,0.262 ratio
UUCUACGAUCCGGACACCAGCAUCAUCUACUUAUGUGGGAAGGGUGACAGCAGUAUCCGCUAUUUUGAGAUCACGGAUGAAUCCCCAUAUGUCCACUACCUCAACACAUUCAGCAGCAAG,0.0961 ratio
UGCAGUCAUCCAGUCCUUGGGCAAAAUACAGAGAAUGUGUCACAACCAGAAAGAGAAGAUACUCAAGACAACUCUAAGGAAUUGCUAGGAAUUUCAGAUGAAUGCCAAAAGAUUUCUCCU,0.177 ratio
AAUAACAGGGCCAGGCACAGGGCCAAGCGAGAAGCUUGCAUUGAUUUCAUGCCUGGGUCUAUAGAUGUAAUUAAAAAAGAGUCCUGUUUCUGGCCUGAAGAAAAUGCUAAUACCUUUUCA,0.419 ratio
GAGGUAGAUCAAGACCUCAUUCCACUGUUAGUGAAAGAAACGGAAGCAAGAUUUCCAGAUGUAGCAAGUGGAUAUGUUGAAGAAAUAAUUCAUUUGAAAAAUUACUAUGAUUUGAAUGUA,0.311 ratio
CCCUUGCCCAGAAGCAGCUGAACAAUUCCUAACCCAUUUCAUCUCGGUUCUGUAUGGGUUUUUCCCGUGCAUGGAAGGGAGGCAGCUCAGGGACCACCAUUGUGGAGCCUUUGAGACCUC,0.263 ratio
UCUAGGCAUUCAAGAUCUCGUAGCAGGCACAGAUUGUCUAGAUCCAGAAGUCGUCAUUCUAGUAUUUCUCCUAGCACACUAACUCUGAAGAGUAGCCUGGCAGCUGAAUUGAACAAGAAU,0.289 ratio
GCUGGAAAUAGGGCACAGAUCCAGACUGUGAUAGAUGCUAACAUGUUCCCAGCUCUUAUUAGUAUAUUGCAAACAGCAGAGUUCCGGACAAGGAAGGAAGCUGCUUGGGCCAUCACAAAU,1.07 ratio
GAGUUCCCAGAAAAAGAAUACGAGGGUGAAAAGGUUUCUGUCACAACAAGAUUACUAAUUUCGCAUUUAAGUGGAAUUCGUCAUUAUGAAAAGGACAUAAAGAAAGUGAAAGAAGAGAAA,0.303 ratio

# Block 2 — method: RNA Bind-n-Seq; form: RNA; matrix: in vitro; tested at: 365 nM; reference: no-protein control; direction: higher = stronger binding
# Target: RNA binding protein fox-1 homolog 2, RRM domain, GST-SBP tag (RBFOX2, Homo sapiens, UniProt O43251-10, residues 100-194)
# Notes: natural RNA segment, single round, ends assumed
# All sequences stand within: GGGAGUUCUACAGUCCGACGAUC … UGGAAUUCUCGGGUGCCAA
# Construct (chain): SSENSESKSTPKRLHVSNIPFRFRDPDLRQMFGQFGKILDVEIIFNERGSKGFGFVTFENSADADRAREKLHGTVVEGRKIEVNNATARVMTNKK
Oligonucleotide,RBNS enrichment (R)
UUCAUGGCCCUUUAUCCUAAUAUUCAAGGACAAGUUCAUAAAGAGAUUGAUUUAAUUGUGGGCCACAACAGGAGACCUUCUUGGGAAUACAAAUGCAAAAUGCCUUAUAC,0.356
AGACACUGUGGAAGUGGGAGGGUAGCCUGGCCCUGUCUAGGAGAAAGGCCCUGCGUGGUCAGGCCUGGUUCUGUGACCUGGAAGGUGACAAGCCAUCCAUCCCCCAUGGG,1.36
CACAUGCAGGUGUCCACCAGCAUAGCCUGCCUGAGAUAGUGUCAUUCCUGGUUCUGGGGAGAAGGGUGUGUGAAGGAGAAUAAAGCAGCCCUUUGUCUUAAAGAAGACUA,0.674
GGAUUUACAUUACAAAGGCGUCCACGGUGUAUUAGUGACAUUCUUCCAUUGACAUUUAGAGUGAAAUAUUUUAUGCCAAAAAAAAAAUCUCUUUUUUAAAAAAGGGGGUU,0.426
GAAUUUUUUAUGUACAUAAAGCCAUAUGUUUAGGGUGGUUUCUAUCUGUCUUGUUUUUCACUUAUAUAACACUGUGAACUUCUAAAGCAAGAGGAUAAAAGAAGCAUGAA,7.75
AAUAUGGAAAUCACUGCCAGAGACAGUCUAUUUUCUUUUAAUUUGUUACUACUUAGUCACAAACCCCACAUUAUUCCAGUUUGGAAUUACUUAUUAAGGAGAAUUGGAAA,0.511
GCAGGGACCUGGAGAGGCCAACAGCCACUGCUACCUUUGUAGUCUUCAAAAUAUUGAACUGCAGGUCCCAAGAUGCAUUUCAGGAUUUAAGACAGGUGCACUAAUGAUAA,0.577
GAUCGUUCAUUAUAAAGGCAGCGUUCAUAGAAUUGCUUUUCUUUCUUUUUACCCCCCCUUUGGGAACUGGAUUUAAGUUUAAAACUUUCCUGUUUCCUUUUUUUUUUUUU,0.435
GAAAAGUGAGAUGUCUUCACGCUAAGGCUCCAGUGUUCUGUCAGAGACCUGAAUGCUCUAUUUGCCCAAUGCUUCCAGACUCUUAGCUGUUCUGCCCAGCCCCCGUCCCG,0.358
UUCAAUGGAUUUUCCUCUUGAAAUGCUUUGUCUACUCAGUUAUAAAAUAUUCAGAUACAAGUUUUAUCUCAGGUGAAUACUCUUGUAUUGUUUUUGCUUUGGUGACAUGC,0.397
UGAGACAUAAAUGUUCACUUUAAAGCAAUUGCAUAAUAGAUAAAAACCUGAACUUUCAUUGGAUUUUUGUUAAUUUUCCUCAUUUUGAAUUAUGUGCACUACCAUAGCUA,1.27
UUGGAAAGAACAGCGAGUAAGUGCAAGUUGUGCUCCUUCCUUUUCCCUACCUGGUACCCUCCCUGGGUUGAGUAUGAAUGGACAGCUCAGAGACUUUGGGAAGAGAAAUU,6.04

# Block 3 — method: protein-binding microarray; form: double-stranded DNA, one strand shown; matrix: in vitro; tested at: 250 nM; notes: 60-bp whole probe; added: salmon DNA 0.4 mg/ml; reference: random background probes; direction: higher = stronger binding; all sequences stand within: GCCTAGCAC … GTCTTGATTCGCTTGACGCTGCTG
# Target: Interferon regulatory factor 7, full length, phosphomimetic (IRF7, Homo sapiens, UniProt Q92985, residues 1-503, S101K/S471D/S472D/S475D/S476D/S477D/S483D/S484D/S487D)
# Residues (chain): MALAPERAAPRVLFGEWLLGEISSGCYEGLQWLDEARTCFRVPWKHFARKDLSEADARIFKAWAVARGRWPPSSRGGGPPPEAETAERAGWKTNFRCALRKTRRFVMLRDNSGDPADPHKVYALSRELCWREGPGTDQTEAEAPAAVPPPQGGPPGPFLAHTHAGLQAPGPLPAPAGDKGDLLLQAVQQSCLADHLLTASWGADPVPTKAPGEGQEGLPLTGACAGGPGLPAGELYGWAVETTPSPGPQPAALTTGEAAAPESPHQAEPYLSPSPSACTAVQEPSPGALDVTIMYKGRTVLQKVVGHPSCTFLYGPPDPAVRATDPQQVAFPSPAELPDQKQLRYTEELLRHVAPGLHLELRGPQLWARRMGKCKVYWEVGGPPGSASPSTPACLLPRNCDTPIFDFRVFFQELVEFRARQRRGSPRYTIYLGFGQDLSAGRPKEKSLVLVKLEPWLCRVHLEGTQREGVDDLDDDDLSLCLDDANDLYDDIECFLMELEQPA
Oligonucleotide,log fluorescence [z-score]
GACGATCTCCTTATCCTGACGTGCTAG,-0.0129
GACGGACTGCGTATCCTGACGTGCTAG,-0.16
TCACAACTCGCCTTTTTTACTGTGCTA,0.177
TTAGGTTCCGGTTGCGGTTAGTGCTAG,4.22
GACGATAGCAGTATCGAGACGTGCTAG,-0.49
CCATCGATTTCTCTTTCCCAAGTGCTA,1.26
GACGGTTTCGTTTCCGGGACGTGCTAG,12.2
TACTGCTGGAGCTCAAGAGCGTGCTAG,-0.939
GTAGATTTCGGGTTTCGATTAGTGCTA,7.5
GACGATTTCGGGTTTCGAGACGTGCTA,4.37
GACGGTATCGGGACTAGGGACGTGCTA,-0.319
CCACCACCAACACCAGTCATGTGCTAG,-0.322
GACGATCTCGGGACTGGAGACGTGCTA,-0.357
TCATTTTTTTCTTTTATACTGTGCTAG,1.6
TTAGGTCACCTTCTCCTTTAGTGCTAG,-0.0641
TTAGATTTCGGGTTTCGATGAGTGCTA,3.05
GACAGTATCGGGACTGGGGACGTGCTA,-0.068
TTATGTATCGGTCTCGGTTAGTGCTAG,1.86

# Block 4 — method: DHFR PCA, deep sequencing; matrix: yeast; added: (+)-ABA 4.8 µM; reference: wild-type fitted maximum; direction: higher = stronger binding
# Target: ABI1, truncated, D143A, DHFR fusion (Arabidopsis thaliana)
# Notes: methotrexate growth selection, single substitutions
# Parent: PYL1, truncated, DHFR fusion (Arabidopsis thaliana); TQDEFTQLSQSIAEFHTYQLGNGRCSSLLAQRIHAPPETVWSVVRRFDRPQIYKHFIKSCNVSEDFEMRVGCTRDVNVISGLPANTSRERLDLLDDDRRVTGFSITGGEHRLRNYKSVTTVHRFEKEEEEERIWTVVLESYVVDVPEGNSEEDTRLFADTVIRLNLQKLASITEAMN; partner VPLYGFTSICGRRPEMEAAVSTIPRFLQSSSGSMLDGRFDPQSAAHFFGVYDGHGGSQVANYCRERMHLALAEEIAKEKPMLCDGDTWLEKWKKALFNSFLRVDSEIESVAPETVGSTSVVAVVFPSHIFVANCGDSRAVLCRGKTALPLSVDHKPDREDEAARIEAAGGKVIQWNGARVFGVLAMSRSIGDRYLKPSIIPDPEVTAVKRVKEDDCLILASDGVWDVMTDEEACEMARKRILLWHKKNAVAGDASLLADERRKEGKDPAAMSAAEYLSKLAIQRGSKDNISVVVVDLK
Variant,relative binding score [%]
P146K,-9.13
G108W,-1.58
H34N,76.9
I57M,0.095
H16F,-19.1
E129Q,70.5
F47Q,-7.55
R49K,77.7
K168D,-4.49
D48Q,-10.4
I172H,23.3
K54Q,-4.97

# Block 5 — target: CCNB2, cyclin fold, Cln2 fusion (human); method: yeast growth competition, sequencing; matrix: yeast; notes: weak parent motif; reference: not given; direction: higher = stronger binding
# Parent: LLGL2 docking peptide (human); KSLKKSLRQSFRR
Variant,normalised enrichment score
KSLKASLRQSFRR [K5A],0.696
KSAKKSLRQSFRR [L3A],1.05
KSLKKALRQSFRR [S6A],-0.279
KSLKKSLRQSFRA [R13A],0.792
KSLKKSARQSFRR [L7A],0.631
KSLAKSLRQSFRR [K4A],0.583

# Block 6 — method: RNAcompete; form: RNA; matrix: in vitro; tested at: 20 nM; notes: 7-mer, probes averaged, single round; reference: mean of 7-mers; direction: higher = stronger binding
# Target: PABPC1L2, full length, GST fusion (mouse, UniProt A0ABA7IW68)
# Target sequence (chain): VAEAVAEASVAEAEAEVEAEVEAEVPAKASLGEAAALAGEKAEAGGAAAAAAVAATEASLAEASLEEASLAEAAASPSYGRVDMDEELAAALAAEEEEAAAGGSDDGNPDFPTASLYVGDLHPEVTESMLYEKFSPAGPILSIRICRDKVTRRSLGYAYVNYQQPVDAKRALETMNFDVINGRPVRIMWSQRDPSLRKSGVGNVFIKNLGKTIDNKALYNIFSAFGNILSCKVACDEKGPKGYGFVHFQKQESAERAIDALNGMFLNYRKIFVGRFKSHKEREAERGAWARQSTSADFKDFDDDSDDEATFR
Oligonucleotide,7-mer Z-score
GAUCAUU,-0.22
UGUCUCU,-0.275
AGAGACU,-0.0464
AUUUACG,0.249
GCUUUCA,-0.244
UUCUGAA,-0.238
AGGUCCG,-0.162
GCAACGG,0.0515
GCGUUCA,-0.235
CGUGAUA,-0.0736
AACUGUU,-0.215
UAACGUU,-0.28
UUCGAUG,-0.182
CAGAUGC,-0.0971
AAUGGGA,0.479
AACAGUG,0.664
AUAUUCC,-0.271

# Some of these lines once more (block 4):
Variant,relative binding score [%]
D48Q,-10.4
H16F,-19.1
H34N,76.9
K168D,-4.49
P146K,-9.13
I172H,23.3
E129Q,70.5
